Measurements of several laboratories.
BRD9: Bromodomain-containing protein 9 (BRD9, Homo sapiens, UniProt Q9H8M2)
VRK1: Serine/threonine-protein kinase VRK1 (VRK1, Homo sapiens, UniProt Q99986)
Fibroblast growth factor 14: Fibroblast growth factor 14 (Homo sapiens, UniProt Q92915)
D14: D14 (Arabidopsis thaliana, UniProt Q9SQR3)

Compound	target	test	conditions	endpoint	result
COc1cc(-c2cc(C(C)=O)n3ccccc23)cc(OC)c1Cn1ccnc1	BRD9	thermal stability, DSF	200 µM	ΔTm	14 °C
CNc1ncc2c(/C=C/C(=O)N3CCC(OC)CC3)nn(Cc3cccc(C(F)(F)F)c3)c2n1	SLK (Homo sapiens, UniProt Q9H2G2)	enzyme activity, inhibitor, radiometric	1 µM	remaining activity	86%
Cc1cc([C@@H](C)Nc2ccccc2C(=O)O)c2nc(N3CCC(F)(F)CC3)c(C#N)c(=O)n2c1	PAK1 (Homo sapiens, UniProt Q13153)	binding, competition with immobilised ligand	10 µM	remaining binding	100%
CCCCC(=O)Nc1ccc(-c2ccc3ncn(CCC)c(=O)c3c2)cn1	EPHB4 (Homo sapiens, UniProt P54760)	binding, competition with immobilised ligand	0.5 µM	remaining binding	100%
C=CC(=O)N1CCC(COCC(=O)N2CCN(c3nc(-c4cnc(N)nc4C(F)F)nc(N4CCOC[C@@H]4C)n3)CC2)CC1	Myosin-IIIb (MYO3B, Homo sapiens, UniProt Q8WXR4)	binding, competition with immobilised ligand	1 µM	remaining binding	93%
COC(=O)c1c(OC)cc(-c2cc(C(C)=O)n3ccccc23)cc1OC	BRD9	thermal stability, DSF	200 µM	ΔTm	7.5 °C
Cn1c2c(c3ccc(Cl)c(Cl)c31)C(C#N)C1(CCNCC1)NC2=O (racemic)	VRK1	thermal stability, DSF	10 µM	ΔTm	0.3 °C
O=c1cc(-c2ccc([N+](=O)[O-])cc2)[nH]c2c(-c3ccc(Cl)cc3)c(Cc3ccccc3)nn12	Fibroblast growth factor 14	thermal stability	25 µM	ΔTm	2.1 °C
C1=C/COCc2cc(ccc2OCCN2CCCC2)Nc2nccc(n2)-c2cccc(c2)COC/1	KIT (Homo sapiens, UniProt P10721, T670I/V559D)	binding	0.1 µM	remaining binding	19%
COc1ccc(OC)c(-c2cc(C(C)=O)n3ccccc23)n1	BRD9	thermal stability, DSF	200 µM	ΔTm	3.5 °C
CC1=CC(O/C=C2/C(=O)OC3c4ccccc4CC23)OC1=O (racemic)	D14	thermal stability, DSF	100 µM	ΔTm	-7.91 °C
CC(C)[C@@H]1NC(=O)[C@@H]2CCCN2C(=O)[C@H](Cc2ccccc2)NC(=O)CSC[C@@H](C(=O)N[C@@H](Cc2ccc(O)cc2)C(N)=O)NC(=O)[C@H](Cc2c[nH]c3ccccc23)NC(=O)[C@H](CCCCN)NC(=O)[C@H](Cc2ccccc2)N(C)C(=O)[C@H](Cc2ccccc2)NC1=O	STING1 (Homo sapiens, UniProt Q86WV6, H232R)	thermal stability, DSF	100 µM	ΔTm	5.51 °C
Cc1cc2c(cc1N1C(=O)c3cccc4c(Cl)ccc(c34)C1=O)n(C)c(=O)n2C	ATAD2B (Homo sapiens, UniProt Q9ULI0)	thermal stability, DSF	10 µM	ΔTm	0.2 °C
CC(=O)Nc1ccc(S(=O)(=O)N2CCN(CC(O)COc3ccc4ccccc4c3)CC2)cc1 (stereo not shown)	Fibroblast growth factor 14	thermal stability	25 µM	ΔTm	3.1 °C
CC1=C(/C=C/C(C)=C/C=O)C(C)(C)C[C@H](O)C1	D14	thermal stability, DSF	100 µM	ΔTm	-8.72 °C
Cn1c2c(c3ccc(Cl)c(Cl)c31)C(C#N)C1(CCOCC1)NC2=O (stereo not shown)	VRK1	thermal stability, DSF	10 µM	ΔTm	0 °C
CCN(CC)Cc1c(OC)cc(-c2cc(C(C)=O)n3ccccc23)cc1OC	BRD9	thermal stability, DSF	200 µM	ΔTm	15 °C
COc1cc(-c2cncc3c2CN(C)Cc2cc(N4CCNCC4)ccc2-3)cc(OC)c1OC	CDKL2 (Homo sapiens, UniProt Q92772)	enzyme activity, inhibitor	1 µM	remaining activity	104%
Cc1cccc(NC(=O)Cn2cc(CO)c3ccccc32)c1	Fibroblast growth factor 14	thermal stability	25 µM	ΔTm	2.3 °C

For quick reference, copied from above:
Compound	target	test	conditions	endpoint	result
Cc1cc2c(cc1N1C(=O)c3cccc4c(Cl)ccc(c34)C1=O)n(C)c(=O)n2C	ATAD2B (Homo sapiens, UniProt Q9ULI0)	thermal stability, DSF	10 µM	ΔTm	0.2 °C
CC(=O)Nc1ccc(S(=O)(=O)N2CCN(CC(O)COc3ccc4ccccc4c3)CC2)cc1 (stereo not shown)	Fibroblast growth factor 14	thermal stability	25 µM	ΔTm	3.1 °C
